# Experimental data gathered from unrelated publications.
# Amino acid sequences for entries named in this document (tags omitted). Chains listed by the source or under a name are the forms on record and can include a tag or linker. Residues count along the entry.
# UniProt Q07011, whole entry, looked up: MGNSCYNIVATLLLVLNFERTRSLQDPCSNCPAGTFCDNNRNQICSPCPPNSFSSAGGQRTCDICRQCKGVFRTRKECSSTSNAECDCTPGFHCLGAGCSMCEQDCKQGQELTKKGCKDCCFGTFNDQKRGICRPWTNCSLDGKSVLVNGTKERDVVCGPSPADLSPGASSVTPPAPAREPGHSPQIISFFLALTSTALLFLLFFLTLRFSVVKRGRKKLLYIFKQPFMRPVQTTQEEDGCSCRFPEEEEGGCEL
# UniProt P23526, 2-432 limits assumed: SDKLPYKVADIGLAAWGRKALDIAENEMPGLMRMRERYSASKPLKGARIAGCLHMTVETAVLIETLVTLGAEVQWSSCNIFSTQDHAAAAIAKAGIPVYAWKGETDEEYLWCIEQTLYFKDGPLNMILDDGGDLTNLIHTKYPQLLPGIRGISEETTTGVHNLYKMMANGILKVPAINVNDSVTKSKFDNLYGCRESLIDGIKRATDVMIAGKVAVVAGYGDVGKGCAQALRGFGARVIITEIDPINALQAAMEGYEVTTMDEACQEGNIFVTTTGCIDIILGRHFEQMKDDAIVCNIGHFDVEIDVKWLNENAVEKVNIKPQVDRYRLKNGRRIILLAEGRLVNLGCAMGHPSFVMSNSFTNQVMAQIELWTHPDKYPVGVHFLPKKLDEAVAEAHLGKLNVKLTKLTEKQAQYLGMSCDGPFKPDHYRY
# UniProt O95619, 9-151 limits assumed: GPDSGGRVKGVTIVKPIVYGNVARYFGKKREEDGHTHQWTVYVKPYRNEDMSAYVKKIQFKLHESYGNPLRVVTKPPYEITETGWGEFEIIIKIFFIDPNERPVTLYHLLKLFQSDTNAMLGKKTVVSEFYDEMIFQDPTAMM
# UniProt P29317, 596-900 limits assumed: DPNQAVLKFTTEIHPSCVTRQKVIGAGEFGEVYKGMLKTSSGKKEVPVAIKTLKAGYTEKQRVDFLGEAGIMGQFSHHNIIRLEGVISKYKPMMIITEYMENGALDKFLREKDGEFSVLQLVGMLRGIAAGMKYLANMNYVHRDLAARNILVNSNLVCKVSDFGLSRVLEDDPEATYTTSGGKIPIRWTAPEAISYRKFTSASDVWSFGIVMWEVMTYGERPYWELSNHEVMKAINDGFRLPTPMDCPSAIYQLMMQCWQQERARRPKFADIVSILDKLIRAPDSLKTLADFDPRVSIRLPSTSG
# UniProt Q8TDQ0, whole entry, looked up: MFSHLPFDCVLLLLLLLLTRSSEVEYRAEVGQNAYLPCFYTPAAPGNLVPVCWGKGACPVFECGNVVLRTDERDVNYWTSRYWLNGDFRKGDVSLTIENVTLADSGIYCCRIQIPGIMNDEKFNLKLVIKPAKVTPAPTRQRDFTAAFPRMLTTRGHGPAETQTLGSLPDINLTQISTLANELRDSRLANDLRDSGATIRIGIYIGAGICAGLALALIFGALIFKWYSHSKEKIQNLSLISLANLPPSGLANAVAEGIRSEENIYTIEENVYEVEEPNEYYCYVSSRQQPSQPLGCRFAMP
# UniProt O95433, 164-338 limits assumed: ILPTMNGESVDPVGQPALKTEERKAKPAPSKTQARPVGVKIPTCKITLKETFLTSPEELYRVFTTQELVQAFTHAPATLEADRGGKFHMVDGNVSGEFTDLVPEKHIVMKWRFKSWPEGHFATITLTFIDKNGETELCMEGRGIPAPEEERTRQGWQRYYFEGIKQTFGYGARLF
# UniProt Q92793, 1081-1197 limits assumed: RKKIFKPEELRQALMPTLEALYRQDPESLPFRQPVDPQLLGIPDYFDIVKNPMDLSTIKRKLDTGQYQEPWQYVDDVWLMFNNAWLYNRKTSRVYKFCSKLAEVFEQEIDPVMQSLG
# UniProt Q8VIJ5, whole entry: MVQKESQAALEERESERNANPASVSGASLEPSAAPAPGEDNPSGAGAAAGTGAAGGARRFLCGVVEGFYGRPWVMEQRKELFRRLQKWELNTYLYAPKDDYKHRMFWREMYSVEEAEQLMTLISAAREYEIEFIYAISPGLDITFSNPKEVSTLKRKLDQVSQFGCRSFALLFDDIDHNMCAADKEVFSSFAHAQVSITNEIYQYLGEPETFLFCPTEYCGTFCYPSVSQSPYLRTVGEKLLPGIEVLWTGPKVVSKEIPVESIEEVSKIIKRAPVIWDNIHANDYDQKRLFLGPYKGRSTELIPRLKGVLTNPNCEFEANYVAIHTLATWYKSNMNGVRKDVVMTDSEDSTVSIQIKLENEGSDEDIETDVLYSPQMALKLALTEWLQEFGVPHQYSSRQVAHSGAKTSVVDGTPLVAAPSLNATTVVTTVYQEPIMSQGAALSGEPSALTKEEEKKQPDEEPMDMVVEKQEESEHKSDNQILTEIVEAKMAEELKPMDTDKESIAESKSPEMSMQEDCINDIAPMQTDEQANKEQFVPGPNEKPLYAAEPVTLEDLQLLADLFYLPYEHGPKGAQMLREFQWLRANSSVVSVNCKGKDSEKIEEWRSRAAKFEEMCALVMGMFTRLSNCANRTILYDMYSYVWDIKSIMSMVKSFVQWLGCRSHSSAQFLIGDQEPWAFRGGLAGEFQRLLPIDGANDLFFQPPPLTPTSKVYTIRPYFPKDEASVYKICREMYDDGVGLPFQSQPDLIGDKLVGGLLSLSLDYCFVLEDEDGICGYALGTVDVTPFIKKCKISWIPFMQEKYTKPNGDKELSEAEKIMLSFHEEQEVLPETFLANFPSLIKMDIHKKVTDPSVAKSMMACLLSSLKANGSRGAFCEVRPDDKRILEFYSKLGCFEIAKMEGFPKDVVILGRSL
# UniProt Q13464, 2-1354 limits assumed: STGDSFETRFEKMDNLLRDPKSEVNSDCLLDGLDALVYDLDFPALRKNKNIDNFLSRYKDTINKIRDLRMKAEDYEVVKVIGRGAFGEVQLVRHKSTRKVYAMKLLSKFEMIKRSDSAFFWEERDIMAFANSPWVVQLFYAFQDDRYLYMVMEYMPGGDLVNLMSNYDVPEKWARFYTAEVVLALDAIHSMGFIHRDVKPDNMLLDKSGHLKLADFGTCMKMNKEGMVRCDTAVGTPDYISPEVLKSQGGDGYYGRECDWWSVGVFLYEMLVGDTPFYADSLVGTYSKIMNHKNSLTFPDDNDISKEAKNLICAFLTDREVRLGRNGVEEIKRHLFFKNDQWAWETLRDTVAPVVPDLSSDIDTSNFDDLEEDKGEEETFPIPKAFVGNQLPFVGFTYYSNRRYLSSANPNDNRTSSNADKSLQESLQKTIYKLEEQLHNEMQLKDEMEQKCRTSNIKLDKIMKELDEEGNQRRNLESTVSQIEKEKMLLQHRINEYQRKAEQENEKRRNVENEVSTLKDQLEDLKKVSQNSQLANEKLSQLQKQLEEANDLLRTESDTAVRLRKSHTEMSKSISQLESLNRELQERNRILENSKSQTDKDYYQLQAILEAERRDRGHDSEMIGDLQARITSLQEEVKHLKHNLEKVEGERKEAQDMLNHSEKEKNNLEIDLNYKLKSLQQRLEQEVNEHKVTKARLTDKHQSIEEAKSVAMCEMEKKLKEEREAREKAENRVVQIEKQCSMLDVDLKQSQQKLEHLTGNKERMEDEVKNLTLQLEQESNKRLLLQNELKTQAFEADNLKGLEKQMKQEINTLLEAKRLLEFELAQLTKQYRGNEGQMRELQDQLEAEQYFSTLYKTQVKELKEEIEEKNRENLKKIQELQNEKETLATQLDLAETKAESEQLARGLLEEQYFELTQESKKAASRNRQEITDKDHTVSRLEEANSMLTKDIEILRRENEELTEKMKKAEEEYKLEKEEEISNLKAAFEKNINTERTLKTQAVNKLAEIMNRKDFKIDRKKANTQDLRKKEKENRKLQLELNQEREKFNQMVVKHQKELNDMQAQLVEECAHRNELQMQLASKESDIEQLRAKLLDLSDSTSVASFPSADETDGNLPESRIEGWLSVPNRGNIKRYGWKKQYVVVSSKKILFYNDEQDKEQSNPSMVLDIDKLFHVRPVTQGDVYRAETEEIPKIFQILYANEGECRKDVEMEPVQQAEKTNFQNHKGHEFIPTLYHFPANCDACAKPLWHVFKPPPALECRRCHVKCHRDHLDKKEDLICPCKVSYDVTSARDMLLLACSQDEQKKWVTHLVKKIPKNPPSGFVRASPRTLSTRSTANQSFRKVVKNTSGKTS
# UniProt P55217, 69-563 limits assumed: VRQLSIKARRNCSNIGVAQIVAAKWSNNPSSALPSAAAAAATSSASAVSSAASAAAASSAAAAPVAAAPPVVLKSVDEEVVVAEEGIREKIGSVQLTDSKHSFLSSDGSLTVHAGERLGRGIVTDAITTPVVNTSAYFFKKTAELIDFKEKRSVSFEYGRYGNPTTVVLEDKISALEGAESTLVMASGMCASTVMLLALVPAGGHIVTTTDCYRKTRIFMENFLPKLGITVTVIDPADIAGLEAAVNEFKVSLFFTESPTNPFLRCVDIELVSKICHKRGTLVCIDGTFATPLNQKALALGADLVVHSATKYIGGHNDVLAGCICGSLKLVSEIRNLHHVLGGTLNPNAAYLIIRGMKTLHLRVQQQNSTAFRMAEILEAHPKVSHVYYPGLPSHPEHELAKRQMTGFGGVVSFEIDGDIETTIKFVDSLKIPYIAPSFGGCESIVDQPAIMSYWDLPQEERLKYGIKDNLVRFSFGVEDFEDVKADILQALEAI
# UniProt Q06187, whole entry: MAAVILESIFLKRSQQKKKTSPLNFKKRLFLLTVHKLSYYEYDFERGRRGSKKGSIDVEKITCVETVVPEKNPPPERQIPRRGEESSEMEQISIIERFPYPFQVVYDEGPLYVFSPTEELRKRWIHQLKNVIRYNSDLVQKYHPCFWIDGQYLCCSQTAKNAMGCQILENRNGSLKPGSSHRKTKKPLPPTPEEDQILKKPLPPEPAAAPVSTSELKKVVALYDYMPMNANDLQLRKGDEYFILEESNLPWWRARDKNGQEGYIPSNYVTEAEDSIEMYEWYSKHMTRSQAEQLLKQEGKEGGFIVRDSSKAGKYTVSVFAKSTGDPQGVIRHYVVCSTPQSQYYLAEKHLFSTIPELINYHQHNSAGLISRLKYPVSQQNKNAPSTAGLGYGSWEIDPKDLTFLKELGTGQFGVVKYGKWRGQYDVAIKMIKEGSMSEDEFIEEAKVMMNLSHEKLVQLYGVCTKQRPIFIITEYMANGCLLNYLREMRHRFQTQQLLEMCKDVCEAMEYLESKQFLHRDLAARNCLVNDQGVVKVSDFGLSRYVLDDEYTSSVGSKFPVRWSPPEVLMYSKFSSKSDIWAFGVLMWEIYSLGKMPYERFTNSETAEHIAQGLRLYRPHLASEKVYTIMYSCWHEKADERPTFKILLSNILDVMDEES
# UniProt P29375, 1-588 with tags or gaps DEL88-347 limits assumed: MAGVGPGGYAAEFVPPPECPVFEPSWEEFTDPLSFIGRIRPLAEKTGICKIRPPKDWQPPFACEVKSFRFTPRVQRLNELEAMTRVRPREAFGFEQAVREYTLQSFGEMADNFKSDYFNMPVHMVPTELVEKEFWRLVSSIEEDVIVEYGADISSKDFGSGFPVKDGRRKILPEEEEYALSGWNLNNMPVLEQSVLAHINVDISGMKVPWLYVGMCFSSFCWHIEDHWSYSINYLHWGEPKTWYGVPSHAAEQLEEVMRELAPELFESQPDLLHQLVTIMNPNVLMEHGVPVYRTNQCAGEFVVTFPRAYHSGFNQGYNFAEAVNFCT
# UniProt P10747, whole entry, looked up: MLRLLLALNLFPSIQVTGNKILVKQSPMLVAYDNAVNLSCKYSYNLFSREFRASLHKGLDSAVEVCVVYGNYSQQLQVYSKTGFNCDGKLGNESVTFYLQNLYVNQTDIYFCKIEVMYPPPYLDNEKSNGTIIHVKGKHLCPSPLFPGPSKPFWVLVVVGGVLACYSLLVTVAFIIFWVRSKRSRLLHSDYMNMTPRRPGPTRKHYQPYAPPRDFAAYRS
# UniProt P62942, whole entry F37V: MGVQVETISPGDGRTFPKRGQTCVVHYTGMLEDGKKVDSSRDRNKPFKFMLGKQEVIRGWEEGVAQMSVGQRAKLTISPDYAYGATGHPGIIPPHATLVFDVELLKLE
# UniProt Q7Z6A9, whole entry, looked up: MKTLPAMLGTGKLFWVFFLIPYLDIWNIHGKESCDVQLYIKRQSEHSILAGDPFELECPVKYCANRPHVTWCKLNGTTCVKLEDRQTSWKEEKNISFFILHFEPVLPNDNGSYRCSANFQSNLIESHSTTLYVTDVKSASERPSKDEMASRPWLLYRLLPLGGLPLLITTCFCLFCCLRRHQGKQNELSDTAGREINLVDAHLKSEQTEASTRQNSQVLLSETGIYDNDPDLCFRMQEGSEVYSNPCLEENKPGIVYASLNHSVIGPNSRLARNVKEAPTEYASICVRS
# UniProt P08238, 1-221 limits assumed: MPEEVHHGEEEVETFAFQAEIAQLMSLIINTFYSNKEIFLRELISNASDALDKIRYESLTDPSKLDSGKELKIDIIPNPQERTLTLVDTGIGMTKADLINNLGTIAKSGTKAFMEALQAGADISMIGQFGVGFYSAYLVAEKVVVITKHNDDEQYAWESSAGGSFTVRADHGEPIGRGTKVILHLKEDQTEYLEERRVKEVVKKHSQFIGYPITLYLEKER
# UniProt Q9UBZ9, 1158-1251 limits assumed: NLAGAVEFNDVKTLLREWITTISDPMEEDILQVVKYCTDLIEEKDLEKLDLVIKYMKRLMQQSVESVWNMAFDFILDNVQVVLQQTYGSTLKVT
# Lines come from different studies, so protocols differ. Values joined by “and” are separate records of one study, mostly repeats; a detail may differ. Numbers after ± are the reported error.
# RPA1 N-terminal domain: Replication protein A 70 kDa DNA-binding subunit, N-terminal domain (RPA1, Homo sapiens, UniProt P27694)
# Tumor necrosis factor receptor superfamily member 9: Tumor necrosis factor receptor superfamily member 9 (Homo sapiens, UniProt Q07011)
# WDR5: WD repeat-containing protein 5 (WDR5, Homo sapiens, UniProt P61964)
Compound,target or system,assay,system,conditions,quantity,result
N[C@@H](CCSC[C@H]1O[C@@H](n2cnc3c(NCCCCNC(=O)CC(NC(=O)c4ccc(C5(C(F)(F)F)N=N5)cc4)C(=O)NCCCOCCOCCOCCCNC(=S)Nc4ccc5c(c4)C(=O)OC54c5ccc(O)cc5Oc5cc(O)ccc54)ncnc32)[C@H](O)[C@@H]1O)C(=O)O (stereo partly shown),"AHCY (Homo sapiens, UniProt P23526)","binding, fluorescence anisotropy",,,Kd,6 ± 2.9 µM
COC(=O)[C@@H]1C(c2nc3cc(C(F)(F)F)ccc3s2)=Cc2cc3c(cc2[C@H]1c1cc(OC)c(OC)c(OC)c1)OCO3,Leishmania infantum,,"promastigote, iRFP",,EC50,> 100 µM
COc1ccc(CSc2nccc3c2ccn3CC(=O)N2CCC3(CC2)OCCO3)cc1,"CD27 antigen (CD27, Homo sapiens, UniProt P26842)","binding, microscale thermophoresis",,,Kd,9.33 µM
O=C(Nc1ccc(C(=O)N2CC(c3nccs3)C2)s1)[C@@H]1CCCN1,"YEATS domain-containing protein 4, YEATS domain (Homo sapiens, UniProt O95619)",ITC,YEATS domain,25 °C,Kd,7.9 µM
CN1C(=N)NC(=O)/C1=C/c1cc(Br)c(O)c(Br)c1,"Transthyretin (TTR, Homo sapiens, UniProt P02766)","binding, isothermal titration calorimetry",,"second site, two-site model",Kd,1.8 µM
CCCCCCCCCCCCCCCC(=O)OC[C@H](COP(=O)(O)O[C@H]1[C@H](O)[C@@H](O)[C@H](OP(=O)(O)O)[C@@H](O)[C@H]1O)OC(=O)CCCCCCCCCCCCCCC,"TUT1 (Homo sapiens, UniProt Q9H6E5)","binding, microscale thermophoresis",lipid micelles,,Kd,0.414 ± 0.018 µM
Cc1ccc(C(=O)Nc2ccc(Br)cc2C(=O)O)cc1S(=O)(=O)Nc1ccc(Cl)c(Cl)c1,RPA1 N-terminal domain,"binding, fluorescence polarisation competition",,together with: FITC-ATRIP probe,Kd,8 ± 1.3 µM
C=CCNC(=O)c1cn(Cc2ccc(C)o2)cc(C(=O)NCCc2c[nH]c3ccccc23)c1=O,Tumor necrosis factor receptor superfamily member 9,"binding, microscale thermophoresis",,,Kd,7.72 µM
Cc1ccc(C(=O)Nc2cc(C(F)(F)F)cc(C(F)(F)F)c2)cc1Nc1nc(-c2cccnc2)nc2c1cnn2C,"EPHA2 (Homo sapiens, UniProt P29317)","binding, microscale thermophoresis",kinase domain,"25 °C, 5% DMSO",Kd,0.284 µM
Cc1ccc(C(=O)Nc2cc(F)ccc2C(=O)O)cc1S(=O)(=O)Nc1ccc(Br)cc1,RPA1 N-terminal domain,"binding, fluorescence polarisation competition",,together with: FITC-ATRIP probe,Kd,34 ± 3.5 µM
O=C(NCCCN1CCN(c2cccc(Cl)c2)CC1)C1CCCN(c2ccncc2)C1 (stereo not shown),"Hepatitis A virus cellular receptor 2 (Homo sapiens, UniProt Q8TDQ0)",microscale thermophoresis,,,Kd,0.88 µM
O=C(NNC(=S)Nc1cccc(C(F)(F)F)c1)c1cccn1-c1ccc(F)cc1,"Activator of 90 kDa heat shock protein ATPase homolog 1, C-terminal domain (AHSA1, Homo sapiens, UniProt O95433)","binding, fluorescence quenching",acetylated Aha1 C-terminal domain,,Kd,0.4 µM
Cc1cccc(NS(=O)(=O)c2cc(C(=O)Nc3ccccc3C(=O)O)ccc2C)c1,RPA1 N-terminal domain,"binding, fluorescence polarisation competition",,together with: FITC-ATRIP probe,Kd,165 ± 34 µM
Cc1cccc(C2NC(=O)c3c(Cl)cccc3N2)c1 (racemic),"SMARCA2 (Homo sapiens, UniProt P51531)",ITC,,"bromodomain, wild type",Kd,> 70 µM
Cc1ccc(C(=O)Nc2ccccc2C(=O)O)cc1S(=O)(=O)NC1CCCCC1,RPA1 N-terminal domain,"binding, fluorescence polarisation competition",,together with: FITC-ATRIP probe,Kd,193 µM
"Cc1cc(-c2ccc3nc(-c4cnn(CC(C)(C)O)c4)nc(N4CCOC[C@@H]4c4ccccc4)c3c2)cn(C)c1=O (single isomer, unassigned)","CREBBP (Homo sapiens, UniProt Q92793)","binding, BROMOscan competition binding",,,Kd,0.032 µM
CC(=O)Nc1ncc(CN2CC[C@H](Oc3cccc(F)n3)C[C@@H]2C)s1 [isotope labelled],"Protein O-GlcNAcase (Rattus norvegicus, UniProt Q8VIJ5)",saturation binding,rat hippocampus homogenate,radiolabelled compound,Kd,0.0048 ± 0.0037 µM
O=S(=O)(c1cccc2cnccc12)N1CCNCC1,"ROCK1 (Homo sapiens, UniProt Q13464)",KINOMEscan binding,,,Kd,0.056 µM
COc1ccnc(C(=O)Nc2cccc(-c3nc(C)cc(=O)[nH]3)c2)c1,"Cystathionine gamma-synthase 1, chloroplastic (CGS1, Arabidopsis thaliana, UniProt P55217)","binding, microscale thermophoresis",,,Kd,6.7 µM
CCOC(=O)Cn1ccc2cc(NS(=O)(=O)c3ccc(C(=O)NCC(F)(F)F)cc3)ccc21,Tumor necrosis factor receptor superfamily member 9,"binding, microscale thermophoresis",,,Kd,8.41 µM
CCc1ccc(NC(=O)c2ccc(C)c(S(=O)(=O)Nc3cccc(Cl)c3)c2)c(C(=O)O)c1,RPA1 N-terminal domain,"binding, fluorescence polarisation competition",,together with: FITC-ATRIP probe,Kd,6 ± 0.37 µM
COC(=O)[C@@H]1C(C=Nc2cc(C)ccc2O)=Cc2cc3c(cc2[C@H]1c1cc(OC)c(OC)c(OC)c1)OCO3,Leishmania infantum,,"promastigote, iRFP",,EC50,41.1 ± 2.4 µM
CN1CCN(c2ccc(-c3cccc(CN4CCN(CCNC(=O)CCCCCCCNc5cccc6c5C(=O)N(C5CCC(=O)NC5=O)C6=O)CC4)c3)cc2NC(=O)c2c[nH]c(=O)cc2C(F)(F)F)CC1 (stereo not shown),WDR5,"binding, isothermal titration calorimetry",,25 °C,Kd,0.125 ± 0.008 µM
Cc1ccc(C(=O)Nc2ccc(F)cc2C(=O)O)cc1S(=O)(=O)Nc1cccc(Cl)c1,RPA1 N-terminal domain,"binding, fluorescence polarisation competition",,together with: FITC-ATRIP probe,Kd,35 µM
Cc1nc2c(C#N)cnn2c(C)c1CCC(=O)NC(C)c1cccc(OC(C)C)c1 (stereo not shown),Tumor necrosis factor receptor superfamily member 9,"binding, microscale thermophoresis",,,Kd,10.3 µM
Cc1ccc(C(=O)Nc2ccccc2C(=O)O)cc1S(=O)(=O)Nc1ccc(Cl)c(Cl)c1,RPA1 N-terminal domain,"binding, fluorescence polarisation competition",,together with: FITC-ATRIP probe,Kd,7 ± 3 µM
Nc1ncnc2c1c(-c1ccc(C(=O)Nc3cc(C4CC4)ccn3)cc1)nn2[C@@H]1CCCN(C(=O)C2CC2)C1,"Tyrosine-protein kinase BTK, non-phosphorylated (BTK, Homo sapiens, UniProt Q06187)",TR-FRET binding kinetics,,"37 °C, unphosphorylated enzyme",Kd,0.0024 ± 0.0001 µM
O=C(O)c1ccncc1Nc1nn(CCN2CCC(F)(F)CC2)c2ccc(F)cc12,"KDM5A (Homo sapiens, UniProt P29375, del88-347)","binding, isothermal titration calorimetry",,,Kd,0.025 to 0.05 µM
Cc1n[nH]c(C)c1CCOC(=O)c1cccc2c1oc(=O)n2C,"CD28 (Homo sapiens, UniProt P10747)",microscale thermophoresis,,2% DMSO,Kd,12.5 ± 3.7 µM
CC[C@H](C(=O)N1CCCC[C@H]1C(=O)O[C@H](CCc1ccc(OC)c(OC)c1)c1cccc(OCC(=O)OC(C)(C)C)c1)c1cc(OC)c(OC)c(OC)c1,"FKBP1A (Homo sapiens, UniProt P62942, F37V)","binding, isothermal titration calorimetry",,,Kd,0.0099 ± 0.0078 µM
Cc1cccc(C(=O)Nc2cc(-c3cccc4c3ccn4C)ccc2N2CCN(C)CC2)c1,WDR5,"binding, surface plasmon resonance",,,Kd,10 µM
COc1ccc(CCNC(=O)C2N3C(=O)c4c(ccc(OC)c4OC)C3SC2(C)C)cc1 (stereo not shown),"B- and T-lymphocyte attenuator (BTLA, Homo sapiens, UniProt Q7Z6A9)","binding, microscale thermophoresis",,,Kd,1.02 µM
COc1cc(/C=C/c2ccc3cc(OCC[18F])ccc3n2)ccn1,"Alpha-synuclein, fibrils (SNCA, Homo sapiens, UniProt P37840)","fibril binding, homologous radioligand competition",,"1 h, 37 °C",Kd,0.079 µM
C/C=C/Cn1c(Cc2cc(OC)c(OC)c(OC)c2)nc2c(N)ncnc21,"Heat shock protein HSP 90-beta, N-terminal domain (HSP90AB1, Homo sapiens, UniProt P08238)",isothermal titration calorimetry,,298 K,Kd,4.24 µM and 4.2 µM
CCCCCCCCCCCCCCCCCC(=O)O[C@@H](CN=[N+]=[N-])[C@H](COP(=O)(O)O)OC(=O)CCCCCCCCCCCCCCCCC,"Protein kinase C alpha type, C2 domain (PRKCA, Homo sapiens, UniProt P17252)","PKCα C2 domain binding, surface plasmon resonance",POPC:POPE:PA 40:40:20 vesicles,"pH 7.4, 25 °C, 20 mol% PA, together with: 1 mM CaCl2",Kd,0.64 ± 0.14 µM
CCc1ccc(C(=O)Nc2ccccc2C(=O)O)cc1S(=O)(=O)Nc1ccc(Cl)c(Cl)c1,RPA1 N-terminal domain,"binding, fluorescence polarisation competition",,together with: FITC-ATRIP probe,Kd,4 µM
Cc1cccc(N=Nc2ccc(N)cc2N)c1C,"DNA repair protein REV1, C-terminal domain (Homo sapiens, UniProt Q9UBZ9)",microscale thermophoresis,,"cis-trans isomer mixture, together with: labelled DNA repair protein REV1 20 nM",Kd,2.9 ± 0.4 µM
